Results collected from several papers.
Each line is one published result; not all experiments were run side by side. Numbers after ± are the reported error.

SMILES | assay | system | conditions | how to read | endpoint | result
CC=C1C(OC2OC(CO)C(O)C(O)C2O)OC=C(C(=O)OC)C1CC(=O)OCC1OC(OCCc2ccc(O)cc2)C(O)C(O)C1O (centres unmarked) | refers to: butyric acid | tumour-bearing mice, faeces | oral, 109.2 mg/kg daily, 10 days | relative to: untreated tumour group | faecal short-chain fatty acid increase | 38.3%
CC1SC(N/N=C2\c3ccccc3-c3nc4cc(F)ccc4nc32)=NC1=O (centres unmarked) | – | mouse, STZ-induced diabetes | oral, 25 mg/kg, day 3 | – | blood glucose | 322 ± 24.7 mg/dL
CCCCCCCOC(=O)Cc1c(C)n(C(=O)c2ccc(Cl)cc2)c2ccc(OC)cc12 | hot plate test | BALB/c mice | 50 mg/kg, 30 min | – | latency of nociceptive response | 15.2 ± 1.49 s
COc1ccc(C2CC(c3ccc(C)cc3)=Nc3ccccc3S2)cc1OC (centres unmarked) | – | rat, normal, overnight fasted | oral, 10 mg/kg, 60 min, oral glucose tolerance test, together with: glucose 3 g/kg oral | – | blood glucose | 113 ± 5.03 mg/dL
C[C@H](NC(=O)CCCCCNC(=S)Nc1ccc2c(c1)C(=O)OC21c2ccc(O)cc2Oc2cc(O)ccc21)C(=O)N[C@@H](C)C(=O)N1CCC[C@H]1C(=O)N[C@@H](CCC(=O)O)C(=O)N1CCC[C@H]1C(=O)N[C@@H](CCC(=O)O)C(=O)N[C@H](C(=O)NCC(=O)N[C@@H](CCC(=O)O)C(=O)O)[C@@H](C)O | cytometric bead array | C57BL/6J mouse, hepatic ischaemia-reperfusion, serum | intravenous, 10 mg/kg | relative to: vehicle | serum inflammatory cytokine levels | decreased
N=C(N)NCCC[C@@H]1NC(=O)[C@H](CCCNC(=N)N)NC(=O)[C@H](CCCNC(=N)N)NC(=O)[C@H](Cc2ccc3ccccc3c2)NC(=O)[C@H](Cc2c[nH]c3ccccc23)NC(=O)[C@H](Cc2ccc3ccccc3c2)NC(=O)[C@H](CCCNC(=N)N)NC1=O | – | mammalian-mimic liposomes | concentration not given, 100 min | – | calcein leakage | 20.2%
C=C(c1ccc(C(=O)O)c(F)c1)c1cc2c(cc1C)C(C)(C)C=CC2(C)C | RNA sequencing, refers to: Emr4 mRNA | rat, brain | dose not given, 24 h, single dose | relative to: vehicle | log2 fold change | 0.7
CC[C@H](C)[C@H](NC(=O)[C@H](CC(N)=O)NC(=O)[C@H](CC(N)=O)NC(=O)[C@H](CCCNC(=N)N)NC(=O)[C@H](CC(N)=O)NC(=O)[C@H](CCCNC(=N)N)NC(=O)[C@H](CCCCN)NC(=O)[C@@H](NC(=O)[C@H](CC(N)=O)NC(=O)[C@H](CCSC)NC(=O)[C@H](CC(C)C)NC(=O)[C@H](Cc1c[nH]c2ccccc12)NC(=O)[C@H](CCC(N)=O)NC(=O)[C@@H](NC(=O)[C@H](Cc1ccccc1)NC(=O)[C@H](CC(=O)O)NC(=O)[C@H](CCC(N)=O)NC(=O)[C@H](C)NC(=O)[C@H](CCCNC(=N)N)NC(=O)[C@H](CCCNC(=N)N)NC(=O)[C@H](CO)NC(=O)[C@H](CC(=O)O)NC(=O)[C@H](CC(C)C)NC(=O)[C@H](Cc1ccc(O)cc1)NC(=O)[C@H](CCCCN)NC(=O)[C@H](CO)NC(=O)[C@H](Cc1ccc(O)cc1)NC(=O)[C@H](CC(=O)O)NC(=O)[C@H](CO)NC(=O)[C@@H](NC(=O)[C@H](Cc1ccccc1)NC(=O)[C@@H](NC(=O)CNC(=O)[C@H](CCC(=O)O)NC(=O)[C@@H](CO)NC(=O)[C@@H](N)Cc1c[nH]cn1)[C@@H](C)O)[C@@H](C)O)C(C)C)[C@@H](C)O)C(=O)N[C@@H](C)C(=O)N[C@@H](CSCC(=O)NCCOCCOCCOCCOCCC(=O)O[C@H]1CC[C@@]2(C)C(=CC[C@H]3[C@@H]4CC[C@H]([C@H](C)CCCC(C)C)[C@@]4(C)CC[C@@H]32)C1)C(N)=O | – | diet-induced obese mice, plasma | subcutaneous, 1.9 µmol/kg, 14 days, chronic dosing | – | insulin level | 7.8 ± 1.1 ng/mL
COc1ccc(-c2nnc(COc3cc(-c4nc5ccccc5s4)ccc3OC)o2)cc1OC | seizure protection | albino mouse, scPTZ-induced seizure | ip, 4.0 h | – | minimal effective dose | 30 mg/kg
O=C(OC(C(F)(F)F)C(F)(F)F)N1CCC(CNS(=O)(=O)c2ccc(Cl)cc2)CC1 | refers to: other monoacylglycerols | mouse, whole brain | oral, 10 and 30 mg/kg | – | monoacylglycerol levels | no effect
C[C@H](NC(=O)COC(=O)[C@H](C)NC(=O)CO)C(=O)O | – | water | pH 4, 65 °C | – | depolymerization rate constant | 0.123 h⁻¹
Cc1nc(C)c(C=[N+]([O-])C(C)(C)C)nc1C | Western blot, refers to: MEF2D | mouse, MPTP model, substantia nigra nuclei | 10 mg/kg | – | protein level increase | 41%
CC(C)(O)c1ccc(N2Cc3c(ccnc3-c3ccc(F)cc3OCC(F)(F)F)C2=O)cc1 | refers to: glucosylceramide | mouse, plasma | 6 h | significant decrease | minimal effective dose | 1 mg/kg
COC(=O)[C@H](CSSC(C)(C)[C@H](NC(=O)[C@H](CCC(=O)NC[C@H](O)[C@@H](O)[C@H](O)[C@H](O)CO)NC(=O)[C@H](CCC(=O)O)NC(=O)[C@H](CCC(=O)NC[C@H](O)[C@@H](O)[C@H](O)[C@H](O)CO)NC(=O)[C@H](CCC(=O)O)NC(=O)[C@H](CCC(=O)NC[C@H](O)[C@@H](O)[C@H](O)[C@H](O)CO)NC(=O)CC[C@H](NC(=O)c1ccc(NCc2cnc3nc(N)[nH]c(=O)c3n2)cc1)C(=O)O)C(=O)O)NC(=O)CC[C@H](NC(=O)c1ccc(NCc2cnc3nc(N)nc(N)c3n2)cc1)C(=O)O | – | Lewis rat, adjuvant-induced arthritis | subcutaneous, 500 nmol/kg twice weekly × 2, from day 9 after induction | – | spleen weight increase | ~55%
COc1ccc(C2CC(c3ccc(C)cc3)=Nc3ccccc3S2)cc1 (centres unmarked) | – | Wistar rat, STZ-induced diabetes, serum | 20 mg/kg, 28 days | – | LDL cholesterol | 106 mg/dL
CCCCCCOC(=O)Cc1c(C)n(C(=O)c2ccc(Cl)cc2)c2ccc(OC)cc12 | hot plate test | BALB/c mice | 100 mg/kg, 30 min | – | latency of nociceptive response | 16 ± 0.85 s

SMILES | assay | system | conditions | how to read | endpoint | result
CCOC(=O)c1cc2c(N)c(C(=O)OC)sc2nc1C | – | Sprague-Dawley rats | subcutaneous, 100 mg/kg every 8 h, long-term dosing | relative to: vehicle | urine urea concentration | decreased
COC(=O)N1c2ccc3c(nc(Cc4ccccc4)n3[C@@H]3CCC[C@@H](C(=O)O)C3)c2CC[C@@H]1C | – | mice, breast cancer PDX | oral, 50 mg/kg, 45 days, ER+, TGI above 60% | – | responding models | 20%
C[N+]1=C(C=CC=CC=C2N(CCCCCC(=O)NCCCC[C@H](NC(=O)[C@@H](CCC(=O)O)NC(=O)[C@@H](CCC(=O)O)NC(=O)[C@@H](CCC(=O)O)NC(=O)CCCCCNC(=O)C3CCC(CNC(=O)CC[C@H](NC(=O)N[C@@H](CCC(=O)O)C(=O)O)C(=O)O)CC3)C(N)=O)c3ccc4ccccc4c3C2(C)C)C(C)(C)c2c1ccc1ccccc21 (some centres unmarked) | fluorescence molecular tomography | mouse, PC-3 flu tumour xenograft, PC-3 flu tumour | iv, 1 nmol, 24 h | – | probe amount in tumour | 4.5 ± 0.8 pmol
C=C(c1cc(F)c(C(=O)O)c(F)c1)c1cc2c(cc1C)C(C)(C)CCC2(C)C | RNA sequencing, refers to: Cyp26b1 mRNA | rat, brain | dose not given, 24 h, single dose | relative to: vehicle | log2 fold change | 1.94
CCCCCCCCNc1ccc(C(=O)O)cc1S(=O)(=O)N(C)C | – | hippocampal neurons 3 DIV, mouse | 10 µM, together with: GABA 100 µM | relative to: DMSO | Ca2+ influx | decreased
O=C(/C=C(O)/C=C/c1cccs1)/C=C/c1cccs1 | FRAP | – | – | – | antioxidant capacity | 0.01 Trolox equivalents
CC(=O)[O-].O.O.O.O.[Ni+2].[O-]c1ccc(Br)cc1C=NCCN1CCOCC1 | FRAP | – | 240 µM | – | ferric reducing power | 58.5%
CC[C@H](C)[C@H](NC(=O)[C@H](CCC(=O)O)NC(=O)[C@H](C)NC(=O)[C@@H](NC(=O)[C@H](Cc1c[nH]cn1)NC(=O)[C@@H](NC(=O)[C@H](CCC(=O)O)NC(=O)[C@H](C)NC(=O)[C@@H](NC(=O)[C@H](CC(C)C)NC(=O)[C@H](CCCCN)NC(=O)[C@H](Cc1c[nH]cn1)NC(=O)[C@H](CC(C)C)NC(=O)[C@H](Cc1ccccc1)NC(=O)[C@H](C)NC(=O)[C@H](CCCNC(=N)N)NC(=O)[C@H](CCCNC(=N)N)NC(=O)[C@H](CCCNC(=N)N)NC(=O)[C@H](C)NC(=O)[C@H](CC(=O)O)NC(=O)[C@H](CCC(N)=O)NC(=O)[C@@H](NC(=O)[C@H](Cc1c[nH]c2ccccc12)NC(=O)[C@H](CCCCN)NC(=O)[C@H](C)NC(=O)[C@H](CCCNC(=N)N)NC(=O)[C@H](CCC(N)=O)NC(=O)[C@H](Cc1c[nH]cn1)NC(=O)[C@H](CCSC)NC(=O)[C@H](CC(C)C)NC(=O)[C@H](CCC(N)=O)NC(=O)[C@@H](NC(=O)[C@H](CCC(=O)O)NC(=O)[C@H](C)NC(=O)[C@@H](NC(=O)[C@H](C)N)C(C)C)[C@@H](C)CC)[C@@H](C)CC)[C@@H](C)CC)[C@@H](C)CC)[C@@H](C)O)C(=O)O | – | cynomolgus monkey, serum | subcutaneous, 0.5 and 1.0 nmol/kg | – | duration of raised serum calcium | ≤ 72 h
CC(=O)C1=C(C)NC(=O)NC1c1ccc(Cl)cc1 (centres unmarked) | DPPH radical scavenging | – | – | relative to: gallic acid | antioxidant potency ratio | ~2.5 fold
Cc1cc2c(cc1C1(c3ncc(C(=O)O)cn3)CC1)C(C)(C)CCC2(C)C | RNA sequencing, refers to: Alb mRNA | rat, brain | dose not given, 24 h, single dose | relative to: vehicle | log2 fold change | -2.52
CN(C)C(=O)c1cncc(N2Cc3cn(Cc4ccc(F)cc4)nc3C2)n1 | EAE clinical score | mouse EAE model | ip, 10 mg/kg daily from day 11, 264 h, unit not given | relative to: vehicle | effect size d | -3.45
C[C@@H](O)[C@@H]1NC(=O)[C@H](CCCCN)NC(=O)[C@@H](Cc2ccc(NC(N)=O)cc2)NC(=O)[C@H](Cc2ccc(NC(=O)[C@@H]3CC(=O)NC(=O)N3)cc2)NC(=O)[C@H](NC(=O)[C@H](Cc2ccc(Cl)cc2)NC(=O)CN2CCN(CC(=O)O)CCN(CC(=O)O)CCN(CC(=O)O)CC2)CSSC[C@@H](C(=O)N[C@H](Cc2ccc(O)cc2)C(N)=O)NC1=O [gallium-68 labelled] | PET/CT | human neuroendocrine tumour patients, all lesions | 60 min | – | SUVmean | 10 ± 8
Cc1cc(O)c(C=O)c2c1C(=O)Oc1c(CO)c(O)c3c(c1O2)C(O)OC3=O (centres unmarked) | copulatory behaviour test | rat, male, streptozotocin-induced diabetes | 5 mg/kg, day 63 | – | Mount latency | 560 ± 29.5 s
CCCCCCCCCn1cc(C(N)(CO)CO)nn1 | – | APP/PS1 mouse, dentate gyrus | dose not given | relative to: PBS | proliferating neural progenitors | increased
O=C(Nc1ccc(C(F)(F)F)cc1Cl)c1cc(Cl)ccc1O | – | mice relapsed VCaP xenograft, serum | dose not given | – | PSA level | decreased
O=C(CCc1ccc(CNC(C(=O)OC2CCCC2)C2CCCCC2)cn1)NO (centres unmarked) | flow cytometry, refers to: lysine acetylation | human, blood monocytes | concentration not given | – | duration of increased acetylation | ≥ 12 h
